# Measurements collected from several papers.
# A part holds a random share of what one study measured.

# Set 1 — organism: SARS-CoV-2 Wuhan spike VSV pseudovirus; effect on: pseudovirus entry; tested at: concentration not given
SMILES,inhibition
COC(=O)CCS(=O)(=O)c1nc(-c2cccs2)cc(C(F)(F)F)n1,47%
CN1CCC2(CC1)CN(C(=O)c1cnc(-c3ccccc3)nc1)CCN2C,38%
C=CCNC(=O)C(CCSC)NC(=O)c1ccco1 (stereo not shown),46%
C[C@@H]1CC(=O)NN=C1c1ccc(NN=C(C#N)C#N)cc1,40%
O=C(O)c1ccc2c(c1)C(=O)N(c1ccc(N3C(=O)c4ccc(C(=O)O)cc4C3=O)c(Cl)c1)C2=O,42%

# Other studies, line by line
# rep nsp14: Replicase polyprotein 1ab, nsp14 (rep, Severe acute respiratory syndrome coronavirus 2, UniProt P0DTD1)
# rep papain-like protease: Replicase polyprotein 1ab, papain-like protease (rep, Severe acute respiratory syndrome coronavirus 2, UniProt P0DTD1)
SMILES,target,test,conditions,how to read,quantity,value
Cn1c[n+]([C@@H]2O[C@H](COP(=O)(O)OP(=O)([O-])OP(=O)(O)OC[C@H]3O[C@@H](n4cnc5c(=O)[nH]c(N)nc54)[C@H](O)[C@@H]3O)[C@@H](O)[C@H]2O)c2nc(N)[nH]c(=O)c21,rep nsp14,thermal shift,500 µM,,ΔTm,2 °C
Cl[TeH]1(Cl)(Cl)OCCO1,rep papain-like protease,,"concentration not given, C111S mutant",reference: positive control,activity,6.81%
O=C(NC1CCN(c2ncnc3[nH]cnc23)CC1)c1cccc(S(=O)(=O)N2CCCC2)c1,rep nsp14,"NSP14 enzyme activity, inhibitor",0.7812 µM,,inhibition,19.8%
NC(=O)C1=C(O)C[C@@H]2C[C@@H]3Cc4cccc(O)c4C(=O)C3=C(O)[C@]2(O)C1=O,rep papain-like protease,,"concentration not given, C111S mutant",reference: positive control,activity,13.5%
CC(C)(C)CC(C)(C)c1cc(Cc2cc(C(C)(C)CC(C)(C)C)cc(-n3nc4ccccc4n3)c2O)c(O)c(-n2nc3ccccc3n2)c1,"Replicase polyprotein 1ab, nsp12 RdRp (rep, Severe acute respiratory syndrome coronavirus 2, UniProt P0DTD1)","binding, biolayer interferometry",concentration not given,,BLI response,0.01 nm
